Measurements pooled from the literature.
A part holds a random share of what one study measured. Changes are numbered by the printed parent chain.

Block 1
Target: RNA binding protein fox-1 homolog 2, RRM domain, GST-SBP tag (RBFOX2, Homo sapiens, UniProt O43251-10, residues 100-194)
Method: RNA Bind-n-Seq
Molecule type: RNA
Sample: in vitro
Concentration: 365 nM
Notes: natural RNA segment, single round, ends assumed
Relative to: no-protein control
Direction: higher = stronger binding
Construct (chain): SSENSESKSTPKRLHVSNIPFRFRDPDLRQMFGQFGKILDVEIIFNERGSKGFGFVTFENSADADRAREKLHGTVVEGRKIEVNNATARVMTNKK
Under “RBNS enrichment (R)”, `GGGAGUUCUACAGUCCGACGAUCUCAAAAACGAAAGCACACCACCCAAGACACAGUACCCAGUCAUGGUUUCCCCAUCCAACUAUUAGUUUCAUACUUUGAAAACUUACUUUCAGAUUAUUCUCAAAGAACACUGGAAUUCUCGGGUGCCAA` is recorded as 0.622.
Under “RBNS enrichment (R)”, `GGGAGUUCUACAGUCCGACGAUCUGCUUAAGACUAAGUCCAGUGUUUUUCAUUUUCCCUUUGGCUGAAUAUUUCAAUUGACAAACCAGCAGGACAUAUGAAAAAUGCUUCAGUGAUGUGGUCCAUUAUAAGAUUGGAAUUCUCGGGUGCCAA` is recorded as 0.379.
Under “RBNS enrichment (R)”, `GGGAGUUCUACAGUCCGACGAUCCAUCCUCCAGCAGGCUGGCCCCACUCCCUUCCAUCUCCAAGUCUUCUUCCAGAGGAUGCAUUUGGAUCCCAGAGGAGUGUUUUCUGGAAGACAAUCUUUCAACAUCCCUAUGGAAUUCUCGGGUGCCAA` is recorded as 0.39.
`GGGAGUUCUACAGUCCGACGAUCGGAAUGUGUGAAAAACAGCUGCUCUCCUUGUCCCAGCUUUGUGAUUGAGCCCUCUGUCUUGCUCUCUCUGCCUUCCCUGUGUCUUUCUUCUCUUACCAGAGCAUCUGUUUUGGAAUUCUCGGGUGCCAA` — result for “RBNS enrichment (R)”: 0.736.
`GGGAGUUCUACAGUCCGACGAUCCGCAUGGGGUAAGGGCUUUCAUCUCAGUAAUUCUCUUGUUCUAAGGAGAUCAGCUCCAACUAUGGUGGGGUGAGUUUUUCCUGACUUGGAGGCUUGCCAGAGAAGGUGGAUGGAAUUCUCGGGUGCCAA` — result for “RBNS enrichment (R)”: 3.03.
Under “RBNS enrichment (R)”, `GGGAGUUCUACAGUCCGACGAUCGACUCGUGGUGACCUAACCUGAGAAAGAGUGCAAUCAGAUGUUAAAGUAACUAAAUAGACUGCGGCACUUUUUUGCUUUAAACUAGAUCAUCUUAGAUUUGUCGAUACCUUGGAAUUCUCGGGUGCCAA` is recorded as 0.357.
`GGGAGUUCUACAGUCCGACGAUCCGUUGCCAGAGCUGGAAGUUUCCACAGGCUGCUGGAGCUAGACAACAAUUCAGACAGAAAGGGAAAGUCCCUGAGGCAAAGUCUCUCUAGCCAGAGACCUAUGCAUCCCGUGGAAUUCUCGGGUGCCAA` — result for “RBNS enrichment (R)”: 0.331.
`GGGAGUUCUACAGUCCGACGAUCGGAGGAGCACCCCCAGCCUCCCCCAGGCUGCGCCUGCCCGCCCGCCGGUUGGCCGGCUGGCCGGUCCACCCCGUCCCGGCCCCGCGCGUGCCCCCAGCGUGGGGCUAACGUGGAAUUCUCGGGUGCCAA`: “RBNS enrichment (R)” 0.309.

Block 2
Target: Ras GTPase-activating protein-binding protein 1, C-terminal RGG region (G3BP1, Homo sapiens, UniProt Q13283)
Sequence of UniProt Q13283 (whole entry, looked up): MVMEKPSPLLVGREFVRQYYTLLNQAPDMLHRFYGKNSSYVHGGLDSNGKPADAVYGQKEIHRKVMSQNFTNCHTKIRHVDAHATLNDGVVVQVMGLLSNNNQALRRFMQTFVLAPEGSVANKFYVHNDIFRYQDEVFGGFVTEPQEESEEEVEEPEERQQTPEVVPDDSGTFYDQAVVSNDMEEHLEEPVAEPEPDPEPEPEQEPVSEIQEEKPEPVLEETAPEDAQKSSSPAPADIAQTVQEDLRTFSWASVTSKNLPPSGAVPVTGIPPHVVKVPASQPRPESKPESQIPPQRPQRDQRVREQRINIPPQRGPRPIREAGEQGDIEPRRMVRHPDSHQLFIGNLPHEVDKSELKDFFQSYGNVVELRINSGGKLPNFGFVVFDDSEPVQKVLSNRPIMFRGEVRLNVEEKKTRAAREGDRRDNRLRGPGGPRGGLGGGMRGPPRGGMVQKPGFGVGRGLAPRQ
Method: RNA Bind-n-Seq
Molecule type: RNA
Sample: in vitro
Concentration: 1 µM
Notes: whole 134-nt RNA, ends assumed
With: 150 mM KCl
Relative to: input library
Direction: higher = stronger binding
For `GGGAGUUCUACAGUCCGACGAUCUGGAGCUGAAGAGCCAAGAGGCUCCGAGUCUGCAGCAGCAGCCAGACCAGUACCUGGAGCCCCAGUCCCACAAGGAGCUUGGAUGUGCGGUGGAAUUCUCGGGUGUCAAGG`, the log2 enrichment was -1.04.
The log2 enrichment of `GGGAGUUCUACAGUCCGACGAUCUCCUGUGCUACACAUCGUAUGUACCGAAUCAAACCCCCCCAAACCCCCCCAAACCCAAAAAAGUAUUAUGUUACGCCGUUCGGAUCUGCAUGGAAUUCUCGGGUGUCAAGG` is reported as -0.613.
For `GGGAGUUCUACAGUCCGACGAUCUCCCGGGCGCUAGCCCACCUCCCACCCGCCUCUUGGCUCCUCUCCUCUAGGCCGUCGCUUUCGGGUUCUCUCAUCGCUUCGUCGUUCGCCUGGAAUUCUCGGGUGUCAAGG`, the log2 enrichment was 0.215.
`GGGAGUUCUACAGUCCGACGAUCUGAUGAUAGUAGCAGAGAAGAUGAACAUACACAUACUAACAGUGUCACGAACUCCAGUAGUAUUGUGGACCUGCCCGUUCACCAACUCUCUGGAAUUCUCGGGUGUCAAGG` has a log2 enrichment of 0.215.
`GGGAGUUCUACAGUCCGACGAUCUACAUUCUUUACCCCUUGUUUUAAUUUGAACCCCACCAUAUGGAUUUUUUUCCUUAAGAAAAUCUCCUUUUAGGAGAUCAUGGUGUCACAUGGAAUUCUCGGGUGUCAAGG` has a log2 enrichment of -0.764.
With `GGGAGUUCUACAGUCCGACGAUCCACAGACAACACGCACCCACACAGACACAGAGGGAAGGGGUUGGGAUGGGGACAGGGUGCACAGCAGGGCGGGGUAGGACGCCAGCCCCUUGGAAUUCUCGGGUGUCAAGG` the log2 enrichment was -0.861.
`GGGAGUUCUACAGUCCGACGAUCAAGUCCUGUGCUACACAUCGUAUGUACCGAAUCGGGUUUGGGUUUGGGGUUUGGGGAAAGUAUUAUGUUACGCCGUUCGGAUCUGCACUUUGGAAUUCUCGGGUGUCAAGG` has a log2 enrichment of 2.33.
For `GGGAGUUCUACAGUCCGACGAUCAAGUCCUGUGCUACACAUCGUAUGUACCGAAUCAAAUUUAAACCCAAAUUUUUAAAAAAGUAUUAUGUUACGCCGUUCGGAUCUGCACUUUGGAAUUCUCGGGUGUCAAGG`, the log2 enrichment was -0.865.
The log2 enrichment of `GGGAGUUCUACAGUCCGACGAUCACCAUGCCGGUGGGCAUCUUUGGGAAGUGGGGCAAGGGGGGGAUAGGGAGGGGGGUAACACUUUGGGAACAGGUGGUCCCAGGUCGUUUCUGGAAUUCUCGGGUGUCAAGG` is reported as -0.884.

Block 3
Target: CCNB2, cyclin fold, Cln2 fusion (human)
Method: yeast growth competition, sequencing
Sample: yeast
Notes: weak parent motif
Relative to: not given
Direction: higher = stronger binding
Starting sequence: WEE1 docking peptide (human); HKTFRKLRLFDTP
`HPTFRKLRLFDTP [K2P]` — result for “normalised enrichment score”: 0.283.
`HKMFRKLRLFDTP [T3M]`: “normalised enrichment score” 0.349.
`HKTFRKLRLFDTL [P13L]`: “normalised enrichment score” 0.573.
`HKTGRKLRLFDTP [F4G]`: “normalised enrichment score” 0.266.
`HKTFRMLRLFDTP [K6M]`: “normalised enrichment score” 0.24.
`HKTFRKLRAFDTP [L9A]`: “normalised enrichment score” 0.787.
`HKTRRKLRLFDTP [F4R]` — result for “normalised enrichment score”: 0.913.
`HKTFRKLRLFQTP [D11Q]`: “normalised enrichment score” 1.76.
`HKRFRKLRLFDTP [T3R]` — result for “normalised enrichment score”: 0.7.
`HQTFRKLRLFDTP [K2Q]` — result for “normalised enrichment score”: 0.831.
`HKTFRKLRLFPTP [D11P]` — result for “normalised enrichment score”: 0.902.
`HLTFRKLRLFDTP [K2L]` — result for “normalised enrichment score”: 0.524.
Under “normalised enrichment score”, `HKTFRPLRLFDTP [K6P]` is recorded as 0.699.
Under “normalised enrichment score”, `HKTFRKLRGFDTP [L9G]` is recorded as 0.606.

Block 4
Target: Phosphate system positive regulatory protein PHO4, full length, GST-tagged (PHO4, Saccharomyces cerevisiae, UniProt P07270, residues 1-312)
Sequence of UniProt P07270 (whole entry, looked up): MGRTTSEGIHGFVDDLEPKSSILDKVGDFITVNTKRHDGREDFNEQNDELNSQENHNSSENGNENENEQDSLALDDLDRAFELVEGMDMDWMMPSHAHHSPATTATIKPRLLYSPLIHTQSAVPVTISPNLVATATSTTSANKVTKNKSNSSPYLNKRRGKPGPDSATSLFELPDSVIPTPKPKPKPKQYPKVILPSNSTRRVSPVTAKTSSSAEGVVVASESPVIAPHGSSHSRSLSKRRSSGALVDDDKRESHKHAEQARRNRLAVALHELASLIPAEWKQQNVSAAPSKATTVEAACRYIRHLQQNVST
Method: competition protein-binding microarray
Molecule type: double-stranded DNA, one strand shown
Sample: in vitro
Concentration: 2 µM
Notes: whole 60-bp probe, lowest competitor level
With: Cbf1 competitor, 0.05 µM
Direction: higher = stronger binding
`TGCGAGATATACCATCACGTGAGGTGGATTTGATCTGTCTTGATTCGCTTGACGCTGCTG` gave a fluorescence intensity of 12800 a.u.
`AAAGATTTGATAAAGCACGTGTCGGATTAGATGCTTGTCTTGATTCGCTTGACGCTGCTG` has a fluorescence intensity of 20000 a.u.
The fluorescence intensity of `CTAACGAAGGTTTGGATTGTGGGTGACAAGCCAAGTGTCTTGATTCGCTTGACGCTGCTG` is reported as 4240 a.u.
`AACGGTGCCGGCCGTCACGCTAACGTTTCCACCAAGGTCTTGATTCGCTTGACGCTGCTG` has a fluorescence intensity of 4980 a.u.
For `AGCAGAAGAAAACATACCGTGCGATATAGTACCTGGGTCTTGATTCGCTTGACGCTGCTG`, the fluorescence intensity was 6120 a.u.
`AATTACTGGTTCACACTCGTGGGTACCAAACGATTCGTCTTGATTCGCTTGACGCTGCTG` gave a fluorescence intensity of 10400 a.u.
`CGTTCTTGGGGACACCGCGTGCGATGCTCAGGATCGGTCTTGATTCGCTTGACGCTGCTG` has a fluorescence intensity of 10500 a.u.
For `AAGCTACATATAAGGAACGTGCTTTTACTCATCCTAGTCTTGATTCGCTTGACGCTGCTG`, the fluorescence intensity was 13900 a.u.
With `TGTTTCAAGTCTTCCGACATGACAGCGTAGTTATGGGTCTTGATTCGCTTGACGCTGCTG` the fluorescence intensity was 3800 a.u.
The fluorescence intensity of `GCCAGATAGACCACTGTCGTGCTTTGTTAAGTACAGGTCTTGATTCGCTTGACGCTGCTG` is reported as 6870 a.u.
`TAACATTCTGTAGTTCATGTGTACTAAAAAAAAAAAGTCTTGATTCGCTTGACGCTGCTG` has a fluorescence intensity of 4340 a.u.
The fluorescence intensity of `AAATTACTAAGTTTTCACGTGATATACCCCGTATGAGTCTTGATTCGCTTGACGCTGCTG` is reported as 11200 a.u.
`CGTCCTAGCGATTGAGTTGTGGGTGCCATGAGGAAGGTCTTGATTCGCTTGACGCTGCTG` has a fluorescence intensity of 6110 a.u.
`CCGTTTCTACCAGTACACGTGTAGCCAATTTTATCGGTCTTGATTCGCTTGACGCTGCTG` gave a fluorescence intensity of 16200 a.u.
With `AAATTACTAAGTTGGAACGTGGGTGACGCCGTATGAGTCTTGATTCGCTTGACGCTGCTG` the fluorescence intensity was 14400 a.u.
For `CAGTTGTTACAGTTGCCCGTGAAGGTAGCAATGAACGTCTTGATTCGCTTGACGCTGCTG`, the fluorescence intensity was 5700 a.u.
`GCCGCAAAATCCTCCATCGTGCTTTATATTTCGTCTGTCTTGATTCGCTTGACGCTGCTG` gave a fluorescence intensity of 10100 a.u.
`CGTCCTAGTGATTGGCATGTGGGTGCCATGAGGAAGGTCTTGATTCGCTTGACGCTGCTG` has a fluorescence intensity of 11500 a.u.
`TCTAGTGATACCCATCACGTGCCAGTGATACTTGCGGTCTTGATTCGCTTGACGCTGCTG` has a fluorescence intensity of 18000 a.u.

Repeated from above (block 4):
`AATTACTGGTTCACACTCGTGGGTACCAAACGATTCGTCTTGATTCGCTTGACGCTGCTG` gave a fluorescence intensity of 10400 a.u.
With `TGTTTCAAGTCTTCCGACATGACAGCGTAGTTATGGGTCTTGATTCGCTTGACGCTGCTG` the fluorescence intensity was 3800 a.u.
`CGTCCTAGTGATTGGCATGTGGGTGCCATGAGGAAGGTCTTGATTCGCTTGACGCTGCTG` has a fluorescence intensity of 11500 a.u.
`TCTAGTGATACCCATCACGTGCCAGTGATACTTGCGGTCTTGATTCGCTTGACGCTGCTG` has a fluorescence intensity of 18000 a.u.
The fluorescence intensity of `CTAACGAAGGTTTGGATTGTGGGTGACAAGCCAAGTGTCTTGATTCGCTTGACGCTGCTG` is reported as 4240 a.u.
`CGTCCTAGCGATTGAGTTGTGGGTGCCATGAGGAAGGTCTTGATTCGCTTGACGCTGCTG` has a fluorescence intensity of 6110 a.u.
`AAAGATTTGATAAAGCACGTGTCGGATTAGATGCTTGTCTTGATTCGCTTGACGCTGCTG` has a fluorescence intensity of 20000 a.u.
The fluorescence intensity of `GCCAGATAGACCACTGTCGTGCTTTGTTAAGTACAGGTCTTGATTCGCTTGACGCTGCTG` is reported as 6870 a.u.
